Measured values of several laboratories.
Numbers after ± are the reported error.

SMILES | tested on | assay | setting | scale | measurement | result
CCN(C(=O)c1cc(F)ccc1Oc1nncnc1N1CCC2(C1)CN([C@H](CCCN(C)CCOC)C(C)C)C2)C(C)C | SU-DHL-6 | cell growth or viability | 7 days | – | GI50 | > 10000 nM
C=CC(=O)Nc1cccc(Cn2ncc3cnc(Nc4cnn(CCOC)c4)nc32)c1 | human ERK1 | KINOMEscan | 100 nM | baseline: control | binding | 78%
CCN1CCN(Cc2ccc(C(=O)Nc3ccc(C)c(NCc4cnc5[nH]ccc5c4OC)c3)cc2C(F)(F)F)CC1 | U2OS overexpressing DDR1 G707A | cell growth | – | – | GI50 | 680 nM
Fc1cncc(-c2ccc3[nH]c4ncnc(N[C@H]5CC[C@H](N6CCOCC6)CC5)c4c3c2)c1 | OCI-Ly3 | cell growth or viability, WST-1 | 72 h | – | GI50 | 3100 nM
CC1CCC2C(C)C(OC(=O)CCC(=O)OCCOCCOCCOC(=O)N3CCC(Nc4ccc(S(=O)(=O)NC(=O)c5ccc(N6CCN(CC7=C(c8ccc(Cl)cc8)CC(C)(C)CC7)CC6)cc5Oc5cnc6[nH]ccc6c5)cc4[N+](=O)[O-])CC3)OC3OC4(C)CCC1C32OO4 (stereo not drawn) | U-937 | cell growth or viability | – | – | GI50 | 690 nM
COc1cccc(C(=O)Nc2ccc(Sc3ccc4c(/C=C/c5ccccn5)n[nH]c4c3)cc2)c1 | Ba/F3 TEL-VEGFR1 | cell growth, CCK-8 | – | – | GI50 | 1100 nM
O=C(C[Se]C(=O)c1ccccc1Nc1ccccc1)Nc1cccc(C(F)(F)F)c1 | UACC-2557 | NCI60 five-dose screen | – | – | GI50 | 990 nM
O=C(N/N=C/c1ccc2c(ccc[n+]2Cc2ccccc2)c1)c1cccc(C(=O)N/N=C/c2ccc3c(ccc[n+]3Cc3ccccc3)c2)c1 | hp2 hairpin duplex DNA | FRET melting | 1 µM, with: ds26 10 µM | – | ΔTm | 1.1 ± 0.1 °C
O=C(CC(=O)Nc1ccc2[nH]nc(/C=C/c3ccccn3)c2c1)Nc1cccc(F)c1 | Ba/F3 TEL-VEGFR1 | cell growth, CCK-8 | – | – | GI50 | 300 nM
CCC1C(COc2nccc3cc(C(N)=O)c(OC)cc23)NC(=O)C1F (stereo not drawn) | OCI-Ly3 | cell growth or viability, WST-1 | 72 h | – | GI50 | > 10000 nM
CN1CCN(Cc2ccc(C(=O)Nc3ccc4c(/C=C/c5ccccn5)n[nH]c4c3)cc2)CC1 | Ba/F3 TEL-VEGFR1 | cell growth, CCK-8 | – | – | GI50 | 550 nM
CC[n+]1cccc2cc(/C=N/NC(=O)c3cccc(C(=O)N/N=C/c4ccc5c(ccc[n+]5CC)c4)c3)ccc21 | MYC parallel G4 DNA | FRET melting | 1 µM, DNA 0.2 µM | – | ΔTm | 3.8 ± 0.2 °C
CC(=O)N1c2ccc(-c3ccc(CNC(=O)c4cn5cc(-c6cnc(N)nc6)nc(N6CCOCC6)c5n4)cc3)cc2CC[C@@H]1C | OPM-2 | cell growth, ViaLight ATP | 5 d | – | GI50 | < 20 nM
O=C(NCCSc1ccc2c(/C=C/c3ccccn3)n[nH]c2c1)Nc1ccc(F)c(F)c1 | Ba/F3 TEL-VEGFR1 | cell growth, CCK-8 | – | – | GI50 | 360 nM
[Cl-].[Cl-].[Ru+2].c1ccc(-c2ccccn2)nc1.c1ccc(-c2ccccn2)nc1.c1ccc2cc3nc4c5cccnc5c5ncccc5c4nc3cc2c1 | SK-MEL-28 | sulforhodamine B | normoxia, with: white visible light | – | GI50 | 42 nM

Repeated from above:
SMILES | tested on | assay | setting | scale | measurement | result
C=CC(=O)Nc1cccc(Cn2ncc3cnc(Nc4cnn(CCOC)c4)nc32)c1 | human ERK1 | KINOMEscan | 100 nM | baseline: control | binding | 78%
